Published values pooled from the literature.
Each numbered part is a random draw from the data of one study; scales do not carry over between parts. Substitutions count along the parent as printed.

Block 1
Target: Runt-related transcription factor 3, Runt domain (RUNX3, Homo sapiens, UniProt Q13761, residues 53-186)
Chain of UniProt Q13761 (53-186, looked up): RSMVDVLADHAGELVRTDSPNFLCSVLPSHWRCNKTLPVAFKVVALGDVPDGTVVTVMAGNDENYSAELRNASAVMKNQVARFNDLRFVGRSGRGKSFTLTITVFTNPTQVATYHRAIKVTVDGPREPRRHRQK
Method: protein-binding microarray
Form: hairpin DNA
Matrix: in vitro
Concentration: not given
Setting: whole hairpin DNA, median over replicate spots
Relative to: not given
Direction: higher = stronger binding
Sequence | median fluorescence
GAGGCCCCGCCGCAACAGCCTCCTGGCTGTTGCGGCGGGGCCTCACACTC (5mC at 8) | 5720 a.u.
GAGGCCTGTCGCGATTGGCCTCCTGGCCAATCGCGACAGGCCTCACACTC | 5030 a.u.
GAGGCCTGTCGCCGTTGGCCTCCTGGCCAACGGCGACAGGCCTCACACTC (5mC at 13) | 5330 a.u.
GAGGCCTGTTGTGGTTGGCCTCCTGGCCAACCACAACAGGCCTCACACTC (5mC at 31) | 4350 a.u.
GAGGCCTGTTGCGGCGGGCCTCCTGGCCCGCCGCAACAGGCCTCACACTC (5mC at 29) | 5710 a.u.
GAGGCCTTTCGCGGTTGGCCTCCTGGCCAACCGCGAAAGGCCTCACACTC | 5940 a.u.
GAGGCCCAACCGCGACAGCCTCCTGGCTGTCGCGGTTGGGCCTCACACTC (5mC at 31) | 10100 a.u.
CTCAGCGCTGTGGGCTGGACTCCTGTCCAGCCCACAGCGCTGAGACACTC (5mC at 6) | 4840 a.u.
CTCAGTTCTGTGCGCTGGACTCCTGTCCAGCGCACAGAACTGAGACACTC (5mC at 31) | 3900 a.u.
GAGGCCTCGTGCGGTTGGCCTCCTGGCCAACCGCACGAGGCCTCACACTC | 6940 a.u.
GAGGCCCGTTGTGGTTGGCCTCCTGGCCAACCACAACGGGCCTCACACTC (5mC at 37) | 5780 a.u.
GAGGCCTGCGGCGGTTGGCCTCCTGGCCAACCGCCGCAGGCCTCACACTC | 6240 a.u.
GAGGCCTGGCGCGGTTGGCCTCCTGGCCAACCGCGCCAGGCCTCACACTC | 5780 a.u.
CTCAGTTCGGTGGGCTGGACTCCTGTCCAGCCCACCGAACTGAGACACTC (5mC at 8) | 4520 a.u.
CTCAGTTCTGTCGGCTGGACTCCTGTCCAGCCGACAGAACTGAGACACTC (5mC at 12) | 4050 a.u.
GAGGCCTATTGCGGTTGGCCTCCTGGCCAACCGCAATAGGCCTCACACTC | 7010 a.u.
GAGGCCCAACCGCATCAGCCTCCTGGCTGATGCGGTTGGGCCTCACACTC | 6670 a.u.
GAGGCCGGTTGTGGTTGGCCTCCTGGCCAACCACAACCGGCCTCACACTC | 6330 a.u.
GAGGCCTGTTGTGGTTGGCCTCCTGGCCAACCACAACAGGCCTCACACTC (5mC at 37) | 5090 a.u.
GAGGCCTGTTGGGGTTGGCCTCCTGGCCAACCCCAACAGGCCTCACACTC (5mC at 33) | 4590 a.u.
GAGGCCTGTCACGGTTGGCCTCCTGGCCAACCGTGACAGGCCTCACACTC | 5160 a.u.
GAGGCCCAACCCCAACAGCCTCCTGGCTGTTGGGGTTGGGCCTCACACTC (5mC at 12) | 5180 a.u.
CTCAGTTCTGTGGGCTGGACTCCTGTCCAGCCCACAGAACTGAGACACTC (5mC at 28) | 4220 a.u.
GAGGCCTCGTGTGGTTGGCCTCCTGGCCAACCACACGAGGCCTCACACTC (5mC at 36) | 5120 a.u.
GAGGCCTGTGGTGGTTGGCCTCCTGGCCAACCACCACAGGCCTCACACTC (5mC at 35) | 5030 a.u.

Block 2
Target: CCND2, cyclin fold, Cln2 fusion (human)
Method: yeast growth competition, sequencing
Matrix: yeast
Setting: weak parent motif
Relative to: not given
Direction: higher = stronger binding
Starting sequence: BRCA2 docking peptide (human); PSIKRNLLNEFDR; partner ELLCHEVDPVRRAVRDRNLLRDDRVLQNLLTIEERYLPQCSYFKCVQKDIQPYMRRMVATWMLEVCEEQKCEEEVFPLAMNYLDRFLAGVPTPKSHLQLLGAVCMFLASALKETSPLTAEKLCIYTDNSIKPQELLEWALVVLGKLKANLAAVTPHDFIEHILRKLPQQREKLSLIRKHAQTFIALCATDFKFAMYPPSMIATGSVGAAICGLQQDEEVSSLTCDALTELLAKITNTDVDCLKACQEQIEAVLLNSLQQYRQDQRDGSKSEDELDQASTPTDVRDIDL
Change | normalised enrichment score
PSIKRNLLNEFMR [D12M] | 0.444
PSIKRNLLNHFDR [E10H] | 0.0491
PSIKRNLLPEFDR [N9P] | 0.0602
PSQKRNLLNEFDR [I3Q] | 0.185
PSIKRNLLNEFDN [R13N] | 0.148
PSIKCNLLNEFDR [R5C] | 0.0797
PSIKRNLLNDFDR [E10D] | 0.349
PSIGRNLLNEFDR [K4G] | -0.333
PSIKRNSLNEFDR [L7S] | 0.046
GSIKRNLLNEFDR [P1G] | 0.0702
PSIKRNLLYEFDR [N9Y] | 0.0902
PSIKSNLLNEFDR [R5S] | 0.55
PSDKRNLLNEFDR [I3D] | -0.408
PSIKVNLLNEFDR [R5V] | 0.27
PSIKRNLLNNFDR [E10N] | 0.272
PSIKRNELNEFDR [L7E] | 0.0419
PSIKRNLVNEFDR [L8V] | 0.397
PSIKRNFLNEFDR [L7F] | -0.317
PSIKRCLLNEFDR [N6C] | -0.547
PSIKRNLLNEQDR [F11Q] | 0.0988
PSIKRNLLNELDR [F11L] | 0.0161

Block 3
Target: RNA binding protein fox-1 homolog 2, RRM domain, GST-SBP tag (RBFOX2, Homo sapiens, UniProt O43251-10, residues 100-194)
Method: RNA Bind-n-Seq
Form: RNA
Matrix: in vitro
Concentration: 365 nM
Setting: natural RNA segment, single round, ends assumed
Relative to: no-protein control
Direction: higher = stronger binding
All sequences stand within: GGGAGUUCUACAGUCCGACGAUC … UGGAAUUCUCGGGUGCCAA
Residues (chain): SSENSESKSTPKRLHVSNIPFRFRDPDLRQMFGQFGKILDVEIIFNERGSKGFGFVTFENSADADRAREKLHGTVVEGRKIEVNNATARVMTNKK
Sequence | RBNS enrichment (R)
CCUAUCACUGUGAAUUGUGGCCUGGUCGCAGUUUGUAGUUUCAUUAAAUGGCCCUUUCACUCCCCUGCCUGGGCCUCUGCUGUCUUGCCUGGCUUCCUUCUUUUCUGAGA | 0.501
UAAUUGCCUAUAAGUUUGCUGUUUCAGAGGCUAGCCCAAAGGCAUCAAAUUUAAUAAAGUUAAACAAAUUGAUUUACUUCAGAGCAAAUAUGAUCCUAUUAAAAUAAUAU | 0.332
ACUGGUCAAUUCAGCAUAUGGAAGUAUAAAUGCAGUCUUUUUACUAGGCAGAUAUAUAUGCUAUCUUACAGCUAAUUAUGAAAUUGAAUGAAAAUCCAUUGUUAUCUUAG | 0.443
GAUGGACACCAAGAGGUCUUCCCCCCACCCCCAGCUCCCCACCAAUCCCUAUGCUUUCUGAUGCACUGCCCCUCCCCCAUCACUGAAACAUUUAUACAAGGGCUUGUGUG | 0.967
CAAGAAAAGUGCCAGUUUUACCCAUGCCAUAUAAUUCAGCUCUUUUGAGUUAUGUGGGGCCAGCAGAAGUCUCAAUCCUUAUAGGCUUGAUGGUGAGAGCAGCGGGAGGU | 0.552
UCACUUAAACCUCCUGUGCCUCGAUUUCCCCCUUCUACAAAGUGGGGCCAAUGAUUCUUGUGUGUCAGCACUGUUACUACCGAGUGCUGAGUAAGGGCAAAAUAAUACCC | 0.59
CAGUGCCGAGUUGGCGGGAAAAGCAAAUUCUUUUGAAGUCUUAGUCUUUCCCUCAGUAGCGGUUUCUUUCAGGUUAACAAGAGGCAUUUGUGCACACACACAGGGCUCUU | 0.319
UUAGACAUAUAUUGCCAAGCCAAAGUUACCAUAUUUCGGUGUUUUUGUGUUUACUCUUUGUAAAGCAAAGAGGUCUGUAUUUACACACCUUUACCUAGGGGUAUGUUUUC | 0.345
CUAACAUACUCACUGUGAACCCAGCCUAUUGCAAAAAUAAAAUCUUUUUAUAAUAUUAUCUAUGGGAUGUCAGCACAAUAUAACACUCUGGGAAGAAGUGGAGUUUUUUG | 0.787
CCAUGAAUUAAAUGUUUCCUGUGUUAAUCAGUAUUCUUAAAUUAAAAGAAAAUGUUUAUAAUGGAAAUGUCAGAGUGAAUGUGGGCUUUUUCUGGAGGUUGCAUUAAUUC | 2.28
CAUGGGCAAAUGAAAAGGGCUAUUAAAAUUUUUUUACACCUUGGAAAAUUGCAGGCUUGGUGCAGAGCGCUCUGUCAUCUUCACCCUGGGAUGUAGGAUUACCUAGCUAU | 0.508
UGCCCACCCCAGCCUCCCAAAAUGCUGGGAUUACAGGCGUGAGCCACGGCACGCAGCCAGCAAGUUGUUUUUAAAUGUUAAUAUAGAAAACAGUGAAGGAUUAGCUGAAA | 0.339

Block 4
Target: Histone acetyltransferase KAT6A, winged helix 1, GST fusion (KAT6A, Homo sapiens, UniProt Q92794, residues 1-85)
Method: protein binding microarray
Form: double-stranded DNA, one strand shown
Matrix: in vitro
Concentration: not given
Setting: 8-mer, flanks averaged, mean of 2 arrays, mostly near background
Relative to: not given
Direction: higher = stronger binding
Residues (chain): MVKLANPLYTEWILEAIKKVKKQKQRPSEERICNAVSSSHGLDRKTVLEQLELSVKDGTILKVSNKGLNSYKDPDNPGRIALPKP
Sequence | E-score
CACAATCG | 0.0897
AAATGGTT | -0.059
GTGCTGCA | -0.0211
ATGTTAGG | -0.0719
TCAGTTAA | -0.148
AATGCTCG | -0.195
GTAGTGGA | -0.0881
ATAGCCGG | 0.23
AACTATTC | 0.068
TAAACACA | -0.214
ACGATCTG | -0.187
CTGGCGCC | 0.143
GAGTAACA | 0.0468
GACTGCGA | 0.0826
CGGCTACG | 0.385
GAGCATCC | -0.0909
GATAGCAC | -0.0263
GGGATAAC | 0.0476

Block 5
Target: RING finger protein unkempt homolog, zinc fingers 1-6, GST-SBP tag (UNK, Homo sapiens, UniProt Q9C0B0, residues 30-357)
Method: RNA Bind-n-Seq
Form: RNA
Matrix: in vitro
Concentration: not given
Setting: RNA with constant flanks, ends assumed
Relative to: input RNA pool
Direction: higher = stronger binding
All sequences stand within: GGGAGUUCUACAGUCCGACGAUC … CAACAGAGGAUUGAGCAUCA
Construct (chain): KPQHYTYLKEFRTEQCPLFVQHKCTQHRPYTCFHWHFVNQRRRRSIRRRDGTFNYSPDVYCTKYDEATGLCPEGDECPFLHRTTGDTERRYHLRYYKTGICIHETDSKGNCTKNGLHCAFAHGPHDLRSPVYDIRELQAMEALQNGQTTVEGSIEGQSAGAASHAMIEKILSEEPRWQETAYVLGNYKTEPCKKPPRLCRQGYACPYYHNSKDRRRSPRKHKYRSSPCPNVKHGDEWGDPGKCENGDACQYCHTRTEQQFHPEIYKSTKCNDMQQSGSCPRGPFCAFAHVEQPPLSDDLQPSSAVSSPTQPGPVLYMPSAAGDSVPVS
Sequence | bound/input enrichment [ratio]
GAAGUUUGUAUCAAUCCAUACCACUAUAAGAGAGUGGAGAGUCCAGUCUUACCUCCAGUAUCCGUGCCUCGUCACAAUGAAUUCAAUCCACAACACAGCCUUCUGGUUCAGUUCAGGAAC | 0.204
CCAGUAGAACCACAAGGGACUUCGGGUGCCACUCAGCAAGAUACUGCCAAAGGUGACCAACCCGAAAGAGUUUCUAAUGGACCUGUGUUAACUCUGGGUGGGUCACCGUCCACAAGCAGU | 0.0947
UCUGCGGAAGUCCCCGAGGCAGCCUCCGCGGAGGAGCAGAAGGAAAUGGAAGAUAAAGUGACCCGUCCAGAGAAAGCAGAAGAAGCAAAAUUAAAAGCAAGAUAUCCUCAUCUGGGACAA | 0.332
CGUACAACUAGAGGAAAGCGGAAGAGGGUUGAUGUGGAAGAAUCAGAGGCGAGUAGCCGUGUCCGCAUCUCUCAUUCCGCCUCAGCCACUGGAAAUGUUUGCAUCGAAGAAAUUGAUGUU | 0.141
UUACCGGCUGAAGAAGGAAAAACCUUGCUGGAACUUGUGAUUGAGCAGUUUGAAGACUUGCCCGUCCGGAUUUUAUUACUGGCAGCAUGUAUAUCUUUUGUUUUGGCUUGGUUUGAAGAA | 0.219
AAACCAACUAAAAACAUGAUUAACAUCAACAGCCGCCUGCAGGAAGUCUUUGGCUGUGCCAUCCGGGCUGCAUAUCCAGACUUGGAGAACCCUCCCCUGAUCGUGACACCAAGUCAGCAG | 0.266
AACUGCAUCUGUGAUAUCGAUCACUGUUCCAACAUGGCACCCCUCUACAGUGACUCCUACUCCGUCUUCUGGGCCAUUUUCAACCUGGUGACCUUUGUGGUCAUGGUGGUUCUCUACGCU | 0.164
ACAAAGCAGCUGACAGAAAUGCUACCCAGCAUCUUAAACCAGCUUGGUGCGGAUAGUCUGACCCGUUUAAGGAGACUGGCCGAAGCUCUGCCCAAACAAUCUGUGGAUGGAAAAGCACCA | 0.0435
CUUCUUUACCCCCCCAAUGUUGGUGAUUGAAGAUCCUCUCUUCAGUGGCGUGAAUAAUGACCGUUAACUUUCCAUUCAUACUUGGAACAAACCCCUUUGGUAAUGUCAAAGGCAGUACCU | 0.327
GGUGUAUCUAACUGGUGCACAAAUUACAUCAGGAUCAAUCAUGAUUUCUUAAAGUCUGGACCGCUGAUCCAAACCAACUAGGUACUUCCAUACGUAUAUGGAAUGGAAUGUGGUGUCCUU | 0.816
CAAGAAACAGAAGUUGCCAUUGGCUACUGCUUGGCCUUUGAGCACAGAGAAAAAAUGUUUAACCGACUGAGGAUCGAGUCAAAGGACUUACUGUUGUACAGCAAUGUUAAGAAGUGAACA | 0.185
